# Results of several laboratories.
# Every numbered part comes from another study and shows a few of its results, in no order. Several values in a cell are separate wells, animals, samples, runs or records.
# Sequence of UniProt Q00536 (whole entry, looked up): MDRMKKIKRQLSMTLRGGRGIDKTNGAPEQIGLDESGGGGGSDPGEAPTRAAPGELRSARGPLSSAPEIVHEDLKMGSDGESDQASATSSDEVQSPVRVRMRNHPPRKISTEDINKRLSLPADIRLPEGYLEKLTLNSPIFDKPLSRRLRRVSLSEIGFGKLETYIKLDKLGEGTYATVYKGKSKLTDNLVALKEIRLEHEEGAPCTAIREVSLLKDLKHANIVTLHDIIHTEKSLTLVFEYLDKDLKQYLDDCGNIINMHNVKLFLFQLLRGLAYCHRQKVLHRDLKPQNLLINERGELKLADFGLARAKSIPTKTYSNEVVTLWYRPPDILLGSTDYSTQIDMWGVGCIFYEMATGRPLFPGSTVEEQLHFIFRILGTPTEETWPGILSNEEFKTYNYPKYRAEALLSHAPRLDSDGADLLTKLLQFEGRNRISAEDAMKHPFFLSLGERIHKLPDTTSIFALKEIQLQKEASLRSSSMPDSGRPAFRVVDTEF
# Sequence of UniProt Q15375 (whole entry, looked up): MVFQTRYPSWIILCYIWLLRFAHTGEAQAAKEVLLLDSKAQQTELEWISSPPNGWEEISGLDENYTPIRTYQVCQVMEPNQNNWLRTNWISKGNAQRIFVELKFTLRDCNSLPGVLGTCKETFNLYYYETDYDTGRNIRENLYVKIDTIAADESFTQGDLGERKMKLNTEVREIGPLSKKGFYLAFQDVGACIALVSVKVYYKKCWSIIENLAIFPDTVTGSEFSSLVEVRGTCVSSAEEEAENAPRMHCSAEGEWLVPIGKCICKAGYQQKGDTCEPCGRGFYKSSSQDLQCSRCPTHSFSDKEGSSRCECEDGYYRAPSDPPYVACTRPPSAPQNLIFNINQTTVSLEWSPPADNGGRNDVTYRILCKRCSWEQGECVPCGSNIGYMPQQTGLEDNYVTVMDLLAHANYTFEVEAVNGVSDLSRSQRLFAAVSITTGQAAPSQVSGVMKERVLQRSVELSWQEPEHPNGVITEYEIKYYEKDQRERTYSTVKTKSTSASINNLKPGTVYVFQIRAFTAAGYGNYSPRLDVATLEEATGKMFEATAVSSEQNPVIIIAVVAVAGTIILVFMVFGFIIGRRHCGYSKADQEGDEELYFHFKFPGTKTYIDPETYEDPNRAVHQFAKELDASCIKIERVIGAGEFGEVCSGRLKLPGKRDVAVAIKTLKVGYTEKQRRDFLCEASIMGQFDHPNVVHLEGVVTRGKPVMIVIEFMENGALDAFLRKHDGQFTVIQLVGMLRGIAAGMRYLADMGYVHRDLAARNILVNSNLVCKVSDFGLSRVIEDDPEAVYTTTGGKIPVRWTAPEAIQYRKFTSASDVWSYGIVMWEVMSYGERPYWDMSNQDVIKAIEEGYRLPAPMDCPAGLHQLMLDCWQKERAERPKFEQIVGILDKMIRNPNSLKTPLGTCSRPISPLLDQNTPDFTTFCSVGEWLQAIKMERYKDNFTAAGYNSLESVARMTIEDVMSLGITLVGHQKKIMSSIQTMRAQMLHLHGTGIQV
# Sequence of UniProt P11362 (whole entry, looked up): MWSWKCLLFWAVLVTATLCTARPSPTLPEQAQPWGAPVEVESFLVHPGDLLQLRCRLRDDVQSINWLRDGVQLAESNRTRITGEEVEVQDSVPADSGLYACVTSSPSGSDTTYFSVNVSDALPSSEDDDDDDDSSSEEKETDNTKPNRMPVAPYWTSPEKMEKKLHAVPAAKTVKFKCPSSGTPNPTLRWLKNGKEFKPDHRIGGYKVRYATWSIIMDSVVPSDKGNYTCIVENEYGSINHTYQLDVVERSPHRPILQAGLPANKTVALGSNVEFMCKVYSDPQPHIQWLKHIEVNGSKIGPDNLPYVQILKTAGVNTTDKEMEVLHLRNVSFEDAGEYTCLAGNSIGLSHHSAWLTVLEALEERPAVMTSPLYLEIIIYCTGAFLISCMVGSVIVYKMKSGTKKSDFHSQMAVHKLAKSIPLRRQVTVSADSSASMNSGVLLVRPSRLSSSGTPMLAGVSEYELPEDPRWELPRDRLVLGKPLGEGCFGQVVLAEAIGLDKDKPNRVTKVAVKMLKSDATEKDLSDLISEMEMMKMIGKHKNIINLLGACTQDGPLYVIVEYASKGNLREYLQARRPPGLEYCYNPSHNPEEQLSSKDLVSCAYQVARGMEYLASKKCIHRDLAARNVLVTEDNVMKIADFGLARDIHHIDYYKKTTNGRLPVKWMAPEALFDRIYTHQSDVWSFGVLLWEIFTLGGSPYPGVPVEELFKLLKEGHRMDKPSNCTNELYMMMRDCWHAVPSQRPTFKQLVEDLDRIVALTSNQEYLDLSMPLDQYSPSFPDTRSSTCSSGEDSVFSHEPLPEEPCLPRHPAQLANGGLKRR
# Sequence of UniProt Q6ZWH5 (whole entry, looked up): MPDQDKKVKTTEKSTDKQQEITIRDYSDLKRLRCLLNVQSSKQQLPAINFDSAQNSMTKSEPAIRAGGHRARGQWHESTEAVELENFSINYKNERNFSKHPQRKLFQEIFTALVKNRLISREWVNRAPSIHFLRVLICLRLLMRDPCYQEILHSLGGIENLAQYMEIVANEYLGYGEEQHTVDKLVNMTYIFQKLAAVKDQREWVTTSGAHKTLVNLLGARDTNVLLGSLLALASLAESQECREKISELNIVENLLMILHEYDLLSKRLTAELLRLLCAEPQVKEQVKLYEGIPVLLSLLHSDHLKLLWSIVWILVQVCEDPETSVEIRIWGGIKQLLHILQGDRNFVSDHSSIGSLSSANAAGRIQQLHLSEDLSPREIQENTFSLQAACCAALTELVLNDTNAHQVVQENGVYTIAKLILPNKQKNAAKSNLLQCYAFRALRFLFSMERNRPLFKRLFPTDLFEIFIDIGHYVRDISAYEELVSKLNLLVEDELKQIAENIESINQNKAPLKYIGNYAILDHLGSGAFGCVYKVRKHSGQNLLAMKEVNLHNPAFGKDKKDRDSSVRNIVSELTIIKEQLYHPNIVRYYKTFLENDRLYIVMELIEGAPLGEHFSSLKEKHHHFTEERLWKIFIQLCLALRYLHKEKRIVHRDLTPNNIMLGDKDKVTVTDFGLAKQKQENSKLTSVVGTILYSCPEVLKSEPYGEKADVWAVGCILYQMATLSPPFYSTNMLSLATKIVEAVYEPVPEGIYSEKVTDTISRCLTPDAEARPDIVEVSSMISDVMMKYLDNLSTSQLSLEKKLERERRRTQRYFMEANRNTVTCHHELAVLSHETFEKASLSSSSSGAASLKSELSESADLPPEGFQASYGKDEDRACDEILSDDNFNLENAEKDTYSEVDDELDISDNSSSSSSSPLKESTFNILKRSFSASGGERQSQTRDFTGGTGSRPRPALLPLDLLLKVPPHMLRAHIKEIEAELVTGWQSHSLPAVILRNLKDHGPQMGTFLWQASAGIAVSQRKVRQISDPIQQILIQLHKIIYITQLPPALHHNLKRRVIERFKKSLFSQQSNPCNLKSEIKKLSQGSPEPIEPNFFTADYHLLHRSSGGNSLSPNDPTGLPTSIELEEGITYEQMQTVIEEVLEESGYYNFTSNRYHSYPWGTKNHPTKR
# Sequence of UniProt P53667 (whole entry, looked up): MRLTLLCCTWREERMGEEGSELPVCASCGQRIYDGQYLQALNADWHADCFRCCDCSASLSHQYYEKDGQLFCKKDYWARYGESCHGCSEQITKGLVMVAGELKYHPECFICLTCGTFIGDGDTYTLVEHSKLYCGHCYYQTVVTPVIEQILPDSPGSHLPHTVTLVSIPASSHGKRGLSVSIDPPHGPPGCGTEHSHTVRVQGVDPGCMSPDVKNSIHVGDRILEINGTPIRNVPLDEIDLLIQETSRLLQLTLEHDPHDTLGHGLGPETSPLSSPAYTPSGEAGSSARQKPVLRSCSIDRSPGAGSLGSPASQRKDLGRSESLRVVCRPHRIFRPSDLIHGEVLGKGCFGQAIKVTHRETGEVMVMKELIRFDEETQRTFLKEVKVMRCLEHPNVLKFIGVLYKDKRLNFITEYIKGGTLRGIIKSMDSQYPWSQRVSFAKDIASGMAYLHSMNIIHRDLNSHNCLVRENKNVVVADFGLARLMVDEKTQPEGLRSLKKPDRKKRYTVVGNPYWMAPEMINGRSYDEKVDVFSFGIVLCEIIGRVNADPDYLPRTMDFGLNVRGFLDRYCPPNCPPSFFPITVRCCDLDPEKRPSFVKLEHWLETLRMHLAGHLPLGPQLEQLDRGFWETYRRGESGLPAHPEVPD

# Sample 1 — route: subcutaneous; dose: 0.3 mg/kg/day DON equivalent; time: 5 days; direction: higher = more metabolite
# SMILES: CC(=O)N[C@@H](Cc1c[nH]c2ccccc12)C(=O)N[C@@H](CCC(=O)C=[N+]=[N-])C(=O)OC(C)C
technique,measured,cell line,species,sample,metabolite peak area
UPLC-MS/MS metabolomics,2'-CMP,EL4,"C57BL/6 CES1-/- mice, EL4 tumour",tumour,7.18e+06 a.u. and 1.15e+07 a.u. and 9.89e+06 a.u. and 5.94e+06 a.u. and 7.07e+06 a.u. and 3.65e+06 a.u.
UPLC-MS/MS,dGMP,,C57BL/6 CES1-/- mice,EL4 tumour,1.59e+06 a.u. and 1.34e+06 a.u. and 1.38e+06 a.u. and 980000 a.u. and 1.32e+06 a.u. and 1.53e+06 a.u.
UPLC-MS/MS metabolomics,dehydroascorbate,EL4,"C57BL/6 CES1-/- mice, EL4 tumour",tumour,8.6e+06 a.u. and 5.08e+06 a.u. and 8.49e+06 a.u. and 7.43e+06 a.u. and 7.14e+06 a.u. and 7.47e+06 a.u.
UPLC-MS/MS,thymidine,,C57BL/6 CES1-/- mice,EL4 tumour,1.78e+06 a.u. and 4.19e+06 a.u. and 4.02e+06 a.u. and 3.83e+06 a.u. and 3.36e+06 a.u. and 2.64e+06 a.u.
UPLC-MS/MS,xanthosine,,C57BL/6 CES1-/- mice,EL4 tumour,705000 a.u. and 1.97e+06 a.u. and 2.9e+06 a.u. and 2.5e+06 a.u. and 325000 a.u. and 1.26e+06 a.u.
UPLC-MS/MS,ribulose/xylulose 5-phosphate,,C57BL/6 CES1-/- mice,EL4 tumour,241000 a.u. and 118000 a.u. and 59100 a.u. and 223000 a.u. and 147000 a.u.
UPLC-MS/MS metabolomics,daidzein,EL4,"C57BL/6 CES1-/- mice, EL4 tumour",tumour,70000 a.u. and 63200 a.u. and 28500 a.u. and 24100 a.u.
UPLC-MS/MS metabolomics,formiminoglutamate,EL4,"C57BL/6 CES1-/- mice, EL4 tumour",tumour,221000 a.u. and 225000 a.u. and 350000 a.u. and 216000 a.u. and 302000 a.u. and 272000 a.u.

# Sample 2 — effect on: cell-free assay; technique: competition with immobilised ligand; tested at: 0.1 µM
# SMILES: O=C(NCCCC1CCCCC1)c1ccc(CNC(=O)c2cnn(-c3ccccc3)c2C(F)(F)F)cc1
target,remaining binding
"Cyclin-dependent kinase-like 2 (CDKL2, Homo sapiens, UniProt Q92772)",100%
"Serine/threonine-protein kinase STK11 (STK11, Homo sapiens, UniProt Q15831)",100%
"cGMP-dependent protein kinase 1 (PRKG1, Homo sapiens, UniProt Q13976)",100%
"Fibroblast growth factor receptor 1 (FGFR1, Homo sapiens, UniProt P11362)",100%
"Dual specificity protein kinase TTK (TTK, Homo sapiens, UniProt P33981)",91%
"Fibroblast growth factor receptor 3 (FGFR3, Homo sapiens, UniProt P22607)",100%
"Epidermal growth factor receptor (EGFR, Homo sapiens, UniProt P00533, G719S)",80%
"Macrophage colony-stimulating factor 1 receptor (CSF1R, Homo sapiens, UniProt P07333)",100%
"Cyclin-dependent kinase 16 (CDK16, Homo sapiens, UniProt Q00536)",100%
"Calcium/calmodulin-dependent protein kinase type 1 (CAMK1, Homo sapiens, UniProt Q14012)",100%
"Myosin light chain kinase 2, skeletal/cardiac muscle (MYLK2, Homo sapiens, UniProt Q9H1R3)",100%
"LIM domain kinase 1 (LIMK1, Homo sapiens, UniProt P53667)",100%
"Mitogen-activated protein kinase 3 (MAPK3, Homo sapiens, UniProt P27361)",93%
"Serine/threonine-protein kinase RIO1 (RIOK1, Homo sapiens, UniProt Q9BRS2)",100%
"1-phosphatidylinositol 3-phosphate 5-kinase (PIKFYVE, Homo sapiens, UniProt Q9Y2I7)",65%
"Serine/threonine-protein kinase/endoribonuclease IRE1 (ERN1, Homo sapiens, UniProt O75460)",94%
"Death-associated protein kinase 2 (DAPK2, Homo sapiens, UniProt Q9UIK4)",98%
"Cyclin-dependent kinase-like 3 (CDKL3, Homo sapiens, UniProt Q8IVW4)",100%
"Calcium/calmodulin-dependent protein kinase type II subunit gamma (CAMK2G, Homo sapiens, UniProt Q13555)",100%
"Platelet-derived growth factor receptor alpha (PDGFRA, Homo sapiens, UniProt P16234)",92%
"Serine/threonine-protein kinase Nek10 (NEK10, Homo sapiens, UniProt Q6ZWH5)",100%
"Epidermal growth factor receptor (EGFR, Homo sapiens, UniProt P00533, L861Q)",100%
"Mitogen-activated protein kinase 4 (MAPK4, Homo sapiens, UniProt P31152)",100%
"Leucine-rich repeat serine/threonine-protein kinase 2 (LRRK2, Homo sapiens, UniProt Q5S007)",57%
"Ephrin type-A receptor 7 (EPHA7, Homo sapiens, UniProt Q15375)",86%

# Sample 3 — effect on: enzyme activity; action: inhibitor; tested at: 0.5 µM; relative to: control
# Target: Serine/threonine-protein kinase D1 (PRKD1, Homo sapiens, UniProt Q15139)
# Sequence of UniProt Q15139 (whole entry, looked up): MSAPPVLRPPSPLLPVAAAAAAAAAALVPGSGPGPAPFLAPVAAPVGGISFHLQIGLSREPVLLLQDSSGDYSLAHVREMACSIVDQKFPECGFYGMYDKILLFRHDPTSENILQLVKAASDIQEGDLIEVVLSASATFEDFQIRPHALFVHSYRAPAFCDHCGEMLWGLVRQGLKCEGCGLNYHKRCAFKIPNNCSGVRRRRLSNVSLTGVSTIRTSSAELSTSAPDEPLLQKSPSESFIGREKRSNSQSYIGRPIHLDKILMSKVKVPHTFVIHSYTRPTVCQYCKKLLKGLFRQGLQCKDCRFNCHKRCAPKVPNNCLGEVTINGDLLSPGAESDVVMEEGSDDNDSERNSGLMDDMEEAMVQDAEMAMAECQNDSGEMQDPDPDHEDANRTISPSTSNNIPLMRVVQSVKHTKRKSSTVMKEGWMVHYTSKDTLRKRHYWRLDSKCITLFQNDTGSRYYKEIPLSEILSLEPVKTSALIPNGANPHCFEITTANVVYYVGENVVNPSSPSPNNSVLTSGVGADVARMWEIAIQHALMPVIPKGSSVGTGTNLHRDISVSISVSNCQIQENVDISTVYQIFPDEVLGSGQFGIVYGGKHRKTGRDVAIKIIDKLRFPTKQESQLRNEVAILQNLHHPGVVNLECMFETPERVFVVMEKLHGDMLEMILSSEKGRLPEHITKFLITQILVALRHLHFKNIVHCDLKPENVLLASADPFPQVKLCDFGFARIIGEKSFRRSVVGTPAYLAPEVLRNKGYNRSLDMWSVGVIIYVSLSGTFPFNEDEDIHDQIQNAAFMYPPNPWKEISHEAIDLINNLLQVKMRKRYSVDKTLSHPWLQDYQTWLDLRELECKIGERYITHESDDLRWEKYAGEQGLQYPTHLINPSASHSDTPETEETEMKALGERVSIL
SMILES,remaining activity
CCN(CC)CCNC(=O)c1c(C)[nH]c(/C=C2\C(=O)Nc3ccc(Cl)cc32)c1C,11.3%
O=C1c2ccccc2-c2n[nH]c3cccc1c23,28.6%
COc1cc2c(cc1OC)-c1[nH]nc(Nc3cccc(F)c3)c1C2,93.6%
CCN(CC)C(=O)c1ccc(Nc2nc(OCC3CCCCC3)c3[nH]cnc3n2)cc1,62.6%
O=C1C(Cl)=C(N2C(=O)CCC2=O)C(=O)c2ccccc21,104%
N#C/C(=C\c1ccc(O)c(O)c1)C(=O)NCc1ccccc1,92.5%
Cc1cc2ncc(-c3ccccc3)nc2cc1C,100%
Nc1cccc(-c2cc3c(Oc4cccc(O)c4)ncnc3[nH]2)c1,94.4%
Cc1cn(-c2cc(NC(=O)c3ccc(C)c(Nc4nccc(-c5cccnc5)n4)c3)cc(C(F)(F)F)c2)cn1,99.7%
CN(C)C[C@H]1CCn2c(c(C3=C(c4cn(C)c5ccccc45)C(=O)NC3=O)c3ccccc32)C1,101%
N#Cc1c(NC(=O)c2cccc3ccccc23)sc2c1CCCC2,101%
O=C(NC(NC(=S)Nc1ccc(F)c([N+](=O)[O-])c1)C(Cl)(Cl)Cl)C(c1ccccc1)c1ccccc1 (stereo not shown),96.9%
c1ccc(-c2cnc(Nc3ccc(OCCN4CCCC4)cc3)s2)cc1,78.4%
Cn1nc2c3c(cccc31)C(=O)c1ccccc1-2,69.3%
CCOc1nc(NC(=O)Cc2cc(OC)ccc2OC)cc(N)c1C#N,88.4%
COc1cc2ncnc(Nc3ccc(O)c(Br)c3)c2cc1OC,70.1%
CN([C@@H](Cc1ccc(OS(=O)(=O)c2cccc3cnccc23)cc1)C(=O)N1CCN(c2ccccc2)CC1)S(=O)(=O)c1cccc2cnccc12,101%
COc1cc2ncnc(Nc3cccc(Cl)c3)c2cc1OC,92.3%
O=C(Nc1cccc(Nc2nccc(Nc3cccc(C(F)(F)F)c3)n2)c1)C1CC1,94.1%
O=c1cc(-c2cccc3c2Sc2ccccc2S3)oc(N2CCOCC2)c1,90.3%
Cc1nc2cc3nc(-c4cccs4)cnc3cc2n1C,97.7%
Ic1cccc(CSc2nnc(-c3ccncc3)o2)c1,97.6%

# Sample 4 — effect on: binding; technique: NanoBRET; cell line: HEK293 (live); direction: lower = stronger binding
# SMILES: C=C(F)C(=O)N1CCN(c2nc(OC[C@@H]3CCCN3C)nc3c2CCN(c2cccc4cccc(Cl)c24)C3)C[C@@H]1CC#N
# Target: GTPase HRas (HRAS, Homo sapiens, UniProt P01112, G12V)
tested at,target engagement
0.8239 µM,115% and 118% and 119%
0.3468 µM,107% and 104% and 106% and 111%
1.301 µM,144% and 155% and 137% and 149%

# For quick reference, copied from above (sample 3):
SMILES,remaining activity
c1ccc(-c2cnc(Nc3ccc(OCCN4CCCC4)cc3)s2)cc1,78.4%
Cn1nc2c3c(cccc31)C(=O)c1ccccc1-2,69.3%
CCOc1nc(NC(=O)Cc2cc(OC)ccc2OC)cc(N)c1C#N,88.4%
COc1cc2ncnc(Nc3ccc(O)c(Br)c3)c2cc1OC,70.1%
CN([C@@H](Cc1ccc(OS(=O)(=O)c2cccc3cnccc23)cc1)C(=O)N1CCN(c2ccccc2)CC1)S(=O)(=O)c1cccc2cnccc12,101%
COc1cc2ncnc(Nc3cccc(Cl)c3)c2cc1OC,92.3%
O=C(Nc1cccc(Nc2nccc(Nc3cccc(C(F)(F)F)c3)n2)c1)C1CC1,94.1%
